Measurements collected from several papers.
Each line is one published result; not all experiments were run side by side. Values joined by “and” are separate records of one study, mostly repeats; a detail may differ. ± marks the error that the study gave.
Rab GDP dissociation inhibitor beta with Rab1A: Rab GDP dissociation inhibitor beta, with Rab1A (Homo sapiens, UniProt P50395)
Voltage-dependent P/Q-type calcium channel subunit alpha-1A: Voltage-dependent P/Q-type calcium channel subunit alpha-1A (Homo sapiens, UniProt O00555)
UCHL1: Ubiquitin carboxyl-terminal hydrolase isozyme L1 (UCHL1, Homo sapiens, UniProt P09936)

SMILES	target or system	test	test system	setting	scale	endpoint	result
Cc1cc(C)cc(COc2cc3c(cc2OCc2cc(C)cc(C)c2)[C@H]2C[C@](O)(Cc4cn(Cc5ccc(NC(=O)/C=C/CN(C)C)cc5)nn4)C[C@H](C)N2CC3)c1	Rab GDP dissociation inhibitor beta with Rab1A	GDI2-Rab1A interaction, NanoLuc complementation		6.25 µM		inhibition	93.2%
C1CCC(OCCN2CCN(CCOC3CCCCC3)CC2)CC1	Trypanosoma cruzi	reporter translation, Renilla luciferase mRNA translation	cell-free extract	40 µM	reference: DMSO	inhibition	-6.3%
Cc1cc(C)cc(COc2cc3c(cc2OCc2cc(C)cc(C)c2)[C@H]2C[C@](O)(Cc4cn(CCc5ccccc5)nn4)C[C@H](C)N2CC3)c1	Rab GDP dissociation inhibitor beta with Rab1A	GDI2-Rab1A interaction, NanoLuc complementation		6.25 µM		inhibition	88.9%
O=C(N[C@@H](c1ccccc1)[C@H]1CCCN1)C1=CN(c2ncnc3[nH]ccc23)CCS1	JAK family kinases (human)	kinase activity, inhibitor, radiometric kinase		50 nM, added: ATP 10 µM		inhibition	> 50%
COc1cc(Cl)c(C(=O)N[C@@H](CN[C@H]2CC[C@@H](N)CC2)Cc2ccc(C#N)cc2)cc1-c1ccc(CN[C@H](C)c2ccc(C)cc2)o1	TACR1 (Homo sapiens, UniProt P25103)	agonist response, antagonist	human cells	10 µM, NK1 antagonist		inhibition	41%
COc1cc2ncnc(Nc3ccc(Oc4ccccc4)c(C)c3C)c2cc1OC	Tyrosine-protein kinase Lyn, isoform B (LYN, Homo sapiens, UniProt P07948)	kinase activity, inhibitor		1 µM		inhibition	88%
Cc1cc(-c2ccnc3[nH]cc(F)c23)cc(F)c1[C@@]1(O)[C@H](C)CN(C(=O)CN)C[C@@H]1C	PIK3C3 (Homo sapiens, UniProt Q8NEB9)	ATP probe binding, KiNativ, refers to: ATP site	HEK293T cell lysate	1 µM		inhibition	66.2%
CC[C@@H]1[C@H](F)C(=O)N[C@@H]1COc1nccc2cc(C(N)=O)c(OC)cc12	PTK2 (Homo sapiens, UniProt Q05397)	ATP probe binding, KiNativ profiling, refers to: Lys1 probe site	THP-1 cell lysate	0.2 mM		inhibition	-1.1%
CC(C)NCC(O)COc1cccc2ccccc12 (stereo not shown)	Voltage-dependent P/Q-type calcium channel subunit alpha-1A	ion current, antagonist	HEK293	30 µM		inhibition	57%
Cn1cc(-c2cnc3ccc(NC(=O)Nc4ccc(F)c(Br)c4)cc3n2)cn1	MAP3K4 (Homo sapiens, UniProt Q9Y6R4)	kinase binding, KiNativ profiling, refers to: Lys1 peptide	PANC-1 lysate	5 µM		inhibition	4.9%
CCC(C)(C)C(=O)O[C@H]1C[C@@H](C)C=C2C=C[C@H](C)[C@H](CC[C@@H]3C[C@@H](O)CC(=O)O3)[C@H]21	Voltage-dependent P/Q-type calcium channel subunit alpha-1A	ion current, antagonist	HEK293	10 µM		inhibition	94%
Cc1cc(C)cc(COc2cc3c(cc2OCc2cc(C)cc(C)c2)[C@H]2C[C@](O)(Cc4cn(Cc5cccc6ccccc56)nn4)C[C@H](C)N2CC3)c1	Rab GDP dissociation inhibitor beta with Rab1A	GDI2-Rab1A interaction, NanoLuc complementation		6.25 µM		inhibition	95.8%
CC(=O)O[C@H]1C(=O)[C@@]2(C)[C@H]([C@H](OC(=O)c3ccccc3)[C@]3(O)C[C@H](OC(=O)[C@H](O)[C@@H](NC(=O)c4ccccc4)c4ccccc4)C(C)=C1C3(C)C)[C@]1(OC(C)=O)CO[C@@H]1C[C@@H]2O	Voltage-dependent P/Q-type calcium channel subunit alpha-1A	ion current, antagonist	HEK293	10 µM		inhibition	13%
CNc1cc(Oc2cc(C(=O)Nc3cc(N4CCN(C)CC4)cc(C(F)(F)F)c3)ccc2C)ncn1	LATS1 (Homo sapiens, UniProt O95835)	kinase activity		1 µM		inhibition	-14.4%
NC(=S)Nc1ccc(Cl)c(Cl)c1	SLC2A1 (Homo sapiens, UniProt P11166)	D-glucose exchange		100 µM, 10 °C, added: 20 mM D-glucose		inhibition	24.3%
O=C(Nc1cccc2c(=O)cc(-c3nnn[nH]3)oc12)c1ccc(OCCCCc2ccccc2)cc1	LRRC8A/LRRC8C (Homo sapiens, UniProt Q8IWT6+Q8TDW0, Y124F/Y126F)	ion current, whole-cell patch clamp	HCT LRRC8-/- cells	3 µM, +100 mV, Y124F/Y126F heteromers		inhibition	8.76% and 63.2% and -3.63% and 10.8% and 4.51% and 18.8%
C[C@H](CCC(C)(C)O)[C@H]1CC[C@H]2[C@@H]3CC=C4C[C@@](C)(O)CC[C@]4(C)[C@H]3CC[C@]12C	Glutamate NMDA receptor; GRIN1/GRIN2A (Homo sapiens, UniProt Q05586+Q12879)	proton inhibition of current, two-electrode voltage clamp	Xenopus oocytes	concentration not given, current ratio pH 6.8 over pH 7.6, added: positive allosteric modulator 10 µM		inhibition	62 ± 5.5%
C=CS(=O)(=O)Nc1ccc(Cn2cc(C[C@@]3(O)C[C@@H]4c5cc(OCc6cc(C)cc(C)c6)c(OCc6cc(C)cc(C)c6)cc5CCN4[C@@H](C)C3)nn2)cc1	Rab GDP dissociation inhibitor beta with Rab1A	GDI2-Rab1A interaction, NanoLuc complementation		6.25 µM		inhibition	94.8%
CNCCCC12CCC(c3ccccc31)c1ccccc12	Voltage-dependent P/Q-type calcium channel subunit alpha-1A	ion current, antagonist	HEK293	3 µM		inhibition	29%
C=CC(=O)Nc1ccc(CCn2cc(C[C@@]3(O)C[C@@H]4c5cc(OCc6cc(C)cc(C)c6)c(OCc6cc(C)cc(C)c6)cc5CCN4[C@@H](C)C3)nn2)cc1	Rab GDP dissociation inhibitor beta with Rab1A	GDI2-Rab1A interaction, NanoLuc complementation		6.25 µM		inhibition	92.4%
CC(C)c1noc2ncc(C(=O)c3ccccc3O)cc12	A-type voltage-gated potassium channel KCND3 (Rattus norvegicus, UniProt Q62897)	ion current, inhibitor, whole-cell patch clamp		10 µM		inhibition	9.38% and 20.2% and 13% and 14.3% and 7.58%
CCCN1CCCC[C@H]1C(=O)Nc1c(C)cccc1C	Voltage-dependent P/Q-type calcium channel subunit alpha-1A	ion current, antagonist	HEK293	30 µM		inhibition	16%

SMILES	target or system	test	test system	setting	scale	endpoint	result
NCc1ccccc1	AMD1 (Homo sapiens, UniProt P17707)	probe labelling, inhibitor, gel-based competitive ABPP	transfected HEK-293T cell lysate	up to 300 µM		inhibition	no inhibition
COc1ccc(F)cc1C(=O)NCc1ccc(-c2nn([C@@H](C)C(F)(F)F)c(N)c2C(N)=O)cc1	TEC (Homo sapiens, UniProt P42680)	target engagement, competitive chemoproteomics	human PBMCs	1 µM		inhibition	53.1%
Fc1ccc([C@@H]2CCNC[C@H]2COc2ccc3c(c2)OCO3)cc1	Voltage-dependent P/Q-type calcium channel subunit alpha-1A	ion current, antagonist	HEK293	30 µM		inhibition	101%
CN(C)c1oc(-c2ccc(S(=O)(=O)N(C)C)cc2)nc1C#N	UCHL1	covalent, intact protein LC-MS		12.5 µM		labelling	11.9%
Cc1ccc(C)c(NC(=O)CSc2nnc(Cc3cc(=O)[nH]c(=O)[nH]3)n2-c2ccc(Cl)cc2)c1	TNKS (Homo sapiens, UniProt O95271)	enzyme activity, inhibitor		concentration not given		inhibition	no inhibition
CN1CCN(c2cc(-c3ccncc3)c(-c3ccc4ccccc4c3)nn2)CC1	CCR3 (Homo sapiens, UniProt P51677)	antagonist, FLIPR		10 µM		inhibition	-3.4%
COC(=O)c1c(C(=O)CCl)c(C)n(C2CC2)c1C	UCHL1	covalent, intact protein LC-MS		12.5 µM		labelling	6.27%
Cc1cc(-c2ccnc3[nH]cc(F)c23)cc(F)c1[C@@]1(O)[C@H](C)CN(C2CCS(=O)(=O)CC2)C[C@@H]1C	LATS2 (Homo sapiens, UniProt Q9NRM7)	ATP probe binding, KiNativ, refers to: Lys2 site	HEK293T cell lysate	10 µM		inhibition	93.8%
O=C(NO)c1ccc(CN2CCCCc3ccccc32)c(F)c1	CHRM5 (Homo sapiens, UniProt P08912)	radioligand binding, radioligand displacement		10 µM		inhibition	-9.17%
CNCCC(Oc1ccc(C(F)(F)F)cc1)c1ccccc1.Cl (stereo not shown)	Voltage-dependent P/Q-type calcium channel subunit alpha-1A	ion current, antagonist		3 µM		inhibition	31%
OO	Histone acetyltransferase RTT109, with Vps75 (Saccharomyces cerevisiae, UniProt Q07794)	enzyme activity, inhibitor		62.5 µM, Rtt109-Vps75 complex, no DTT, added: [3H]acetyl-CoA		inhibition	3 ± 7%
COc1cc(C(=O)NS(=O)(=O)c2ccccc2C)ccc1Cc1cn(C)c2ccc(NC(=O)OC3CCCC3)cc12	Volume-regulated anion channel subunit LRRC8C, part LRRC8A IL1 chimera (LRRC8C, Homo sapiens, UniProt Q8TDW0, E6A)	ion current, inhibitor, whole-cell patch clamp	HCT LRRC8-/- cells	1 µM, +100 mV		inhibition	39% and 89.5% and 62.4% and 46.5% and 55.2% and 64.2%
Br.CCCCCCn1c2c(c(=N)c3c1CCC3)CCC2	Trypanosoma cruzi	reporter translation, Renilla luciferase mRNA translation	cell-free extract	40 µM	reference: DMSO	inhibition	9%
COc1cc(-c2cc(C(C)=O)n3ccccc23)cc(OC)c1Cn1ccnc1	Bromodomain-containing protein 4, BD2 (BRD4, Homo sapiens, UniProt O60885)			1 µM		inhibition	-3.74%
Cc1cc(C)cc(COc2cc3c(cc2OCc2cc(C)cc(C)c2)[C@H]2C[C@](O)(Cc4cn(Cc5ccc(O)cc5)nn4)C[C@H](C)N2CC3)c1	Rab GDP dissociation inhibitor beta with Rab1A	GDI2-Rab1A interaction, NanoLuc complementation		6.25 µM		inhibition	94.2%
N[C@@H](Cc1ccc(O)c(O)c1)C(=O)O	Voltage-dependent P/Q-type calcium channel subunit alpha-1A	ion current, antagonist	HEK293	10 µM		inhibition	7%
CCc1nc2ccc(Cl)cn2c1C(=O)NCc1ccc(N2CCC(c3ccc(OC(F)(F)F)cc3)CC2)cc1	Cytochrome b, in bc1 complex (COB, Candida albicans, UniProt P0C8L0)	cytochrome c reduction		10 and 1 µM		inhibition	no inhibition
CCc1oc2ccccc2c1C(=O)c1cc(Br)c(O)c(Br)c1	SLC22A12 (Homo sapiens, UniProt Q96S37, F360A)	urate uptake	HEK293T	0.5 µM, 10 min, 37 °C, added: 200 µM [14C]urate		inhibition	49.2% and 100% and 48.1%
Cc1ccc(C(=O)Nc2ccc(S(=O)(=O)O)c3cc(S(=O)(=O)O)cc(S(=O)(=O)O)c23)cc1NC(=O)c1cccc(NC(=O)Nc2cccc(C(=O)Nc3cc(C(=O)Nc4ccc(S(=O)(=O)O)c5cc(S(=O)(=O)O)cc(S(=O)(=O)O)c45)ccc3C)c2)c1	SIRT2 (Homo sapiens, UniProt Q8IXJ6)	enzyme activity, inhibitor		10 µM		inhibition	< 5%
Cc1nn(-c2nc3c(F)cc(F)cc3s2)c(O)c1C(c1ccccc1C(F)(F)F)c1c(C)nn(-c2nc3c(F)cc(F)cc3s2)c1O	CGAS (Homo sapiens, UniProt Q8N884)	enzyme activity, inhibitor, pyrophosphatase-coupled		50 µM, 1.5 h, added: HT-DNA		inhibition	85.5%
[2H]c1cc(C)c(NC(=O)c2cnc(Nc3cc(N4CCCCC4)nc(C)n3)s2)c(Cl)c1	TNK2 (Homo sapiens, UniProt Q07912)			0.001 µM		inhibition	> 50%

Some of these lines once more:
SMILES	target or system	test	test system	setting	scale	endpoint	result
CC(=O)O[C@H]1C(=O)[C@@]2(C)[C@H]([C@H](OC(=O)c3ccccc3)[C@]3(O)C[C@H](OC(=O)[C@H](O)[C@@H](NC(=O)c4ccccc4)c4ccccc4)C(C)=C1C3(C)C)[C@]1(OC(C)=O)CO[C@@H]1C[C@@H]2O	Voltage-dependent P/Q-type calcium channel subunit alpha-1A	ion current, antagonist	HEK293	10 µM		inhibition	13%
CNc1cc(Oc2cc(C(=O)Nc3cc(N4CCN(C)CC4)cc(C(F)(F)F)c3)ccc2C)ncn1	LATS1 (Homo sapiens, UniProt O95835)	kinase activity		1 µM		inhibition	-14.4%
NC(=S)Nc1ccc(Cl)c(Cl)c1	SLC2A1 (Homo sapiens, UniProt P11166)	D-glucose exchange		100 µM, 10 °C, added: 20 mM D-glucose		inhibition	24.3%
O=C(Nc1cccc2c(=O)cc(-c3nnn[nH]3)oc12)c1ccc(OCCCCc2ccccc2)cc1	LRRC8A/LRRC8C (Homo sapiens, UniProt Q8IWT6+Q8TDW0, Y124F/Y126F)	ion current, whole-cell patch clamp	HCT LRRC8-/- cells	3 µM, +100 mV, Y124F/Y126F heteromers		inhibition	8.76% and 63.2% and -3.63% and 10.8% and 4.51% and 18.8%
